Published values pooled from the literature.
Each line is one published result; not all experiments were run side by side. Numbers after ± are the reported error.

| SMILES | assay | system | conditions | tissue uptake |
| --- | --- | --- | --- | --- |
| CCCC[C@@H]1NC(=O)[C@@H](NC(=O)[C@H](CCC(=O)O)NC(=O)CNC(=O)CN2CCN(CC(=O)O)CCN(CC(=O)O)CCN(CC(=O)O)CC2)CCCCNC(=O)C[C@@H](C(N)=O)NC(=O)[C@H](C(C)C)NC(=O)[C@@H]2CCCN2C(=O)[C@H](CCCNC(=N)N)NC(=O)CNC(=O)[C@H](Cc2c[nH]c3ccccc23)NC(=O)[C@H](CCCNC(=N)N)NC(=O)[C@@H](Cc2ccccc2)NC(=O)[C@H](Cc2c[nH]cn2)NC(=O)[C@H](CCC(=O)O)NC1=O [gallium-67 labelled] |  | normal C57 mice, muscle | intravenous, 0.037 MBq/mouse, 4 h | 0.05 ± 0.02 %ID/g |
| C[C@H](CN(C)Cc1ccccc1)NC(=O)c1ccc(-c2noc(C(F)(F)[18F])n2)cc1 | PET imaging | female Sprague-Dawley rats, brain | intravenous, 30 min | 1.57 ± 0.29 SUV |
| CCCC[C@H](NC(=O)CNC(=O)CNC(=O)CN1CCN(CC(=O)O)CCN(CC(=O)O)CC1)C(=O)N[C@H]1CC(=O)NCCCC[C@@H](C(N)=O)NC(=O)[C@H](Cc2c[nH]c3ccccc23)NC(=O)[C@H](CCCNC(=N)N)NC(=O)[C@@H](Cc2ccccc2)NC(=O)[C@H](Cc2c[nH]cn2)NC1=O [copper-64 labelled] |  | female C57 mouse, B16/F1 melanoma, lung | intravenous, 0.037 MBq, 0.5 h | 2.05 ± 0.26 %ID/g |
| CCCC[C@H](NC(=O)CNC(=O)CNC(=O)CN1CCN(CC(=O)O)CCN(CC(=O)O)CC1)C(=O)N[C@H]1CC(=O)NCCCC[C@@H](C(N)=O)NC(=O)[C@H](Cc2c[nH]c3ccccc23)NC(=O)[C@H](CCCNC(=N)N)NC(=O)[C@@H](Cc2ccccc2)NC(=O)[C@H](Cc2c[nH]cn2)NC1=O [gallium-67 labelled] |  | female C57 mice, B16/F1 melanoma, stomach | intravenous, 0.037 MBq, 0.5 h | 1.79 ± 0.22 %ID/g |
| CN(C)c1ccc(-c2nc3ccc(OCCCCCN4CCN5CCN(CC4)CC(=O)[O][Al]([18F])[O]C(=O)C5)cc3s2)cc1 |  | ICR mouse, spleen | intravenous, 30 min | 1.76 ± 0.14 %ID/g |
| NC12CNCCNCC(NCc3ccc(CNC(=O)CCCC(=O)NCc4ccc(-c5nncnn5)cc4)cc3)(CNCCNC1)CNCCNC2.[64Cu+2] |  | athymic nude mice SW1222 xenograft, bone | 4 h post injection, 24 h accumulation interval, added: huA33-TCO pretargeting | 0.34 ± 0.18 %ID/g |
| CC(C)[C@H](NC(=O)[C@@H]1CCCN1C(=O)[C@H](CCCNC(=N)N)NC(=O)[C@H](CS)NC(=O)[C@H](Cc1c[nH]c2ccccc12)NC(=O)[C@H](CCCNC(=N)N)NC(=O)[C@@H](Cc1ccccc1)NC(=O)[C@H](Cc1c[nH]cn1)NC(=O)[C@H](CCC(=O)O)NC(=O)[C@H](CS)NC(=O)[C@H](CS)NC(=O)CNC(=O)[C@@H]1CC(=O)N[C@@H](CCCNC(=N)N)C(=O)NCC(=O)N[C@@H](CC(=O)O)C(=O)N[C@H](Cc2ccc(O)cc2)C(=O)N1)C(N)=O [technetium-99m labelled] |  | C57 mouse, female, B16/F1 melanoma, lung | intravenous, 0.037 MBq, 0.5 h | 7.49 ± 2.03 %ID/g |
| CCCC[C@H](NC(=O)CNC(=O)CNC(=O)CN1CCN(CC(=O)O)CCN(CC(=O)O)CCN(CC(=O)O)CC1)C(=O)N[C@H]1CC(=O)NCCCC[C@@H](C(N)=O)NC(=O)[C@H](Cc2c[nH]c3ccccc23)NC(=O)[C@H](CCCNC(=N)N)NC(=O)[C@@H](Cc2ccccc2)NC(=O)[C@H](Cc2c[nH]cn2)NC1=O [copper-64 labelled] |  | female C57 mouse, B16/F1 melanoma, spleen | intravenous, 0.037 MBq, 2 h | 0.82 ± 0.26 %ID/g |
| O=C([O-])CN1CCN(CC(=O)[O-])CCN(CC(=O)[O-])CCN(CC(=O)[O-])CC1.[64Cu+2] |  | healthy athymic nude mice, lung | intravenous, 4 h | 1.25 %ID/g |
| CC(C)[C@H](NC(=O)[C@@H]1CCCN1C(=O)[C@H](CCCNC(=N)N)NC(=O)[C@H](CS)NC(=O)[C@H](Cc1c[nH]c2ccccc12)NC(=O)[C@H](CCCNC(=N)N)NC(=O)[C@@H](Cc1ccccc1)NC(=O)[C@H](Cc1c[nH]cn1)NC(=O)[C@H](CCC(=O)O)NC(=O)[C@H](CS)NC(=O)[C@H](CS)NC(=O)[C@@H]1CC(=O)N[C@@H](CCCNC(=N)N)C(=O)NCC(=O)N[C@@H](CC(=O)O)C(=O)N[C@H](Cc2ccc(O)cc2)C(=O)N1)C(N)=O [technetium-99m labelled] |  | C57 mouse, female, B16/F1 melanoma, pancreas | intravenous, 0.037 MBq, 24 h | 0.12 ± 0.07 %ID/g |
| O=C(O)C1CN(Cc2ccc(-c3noc(-c4ccc(OCC[18F])c(C(F)(F)F)c4)n3)cc2)C1 |  | male Sprague-Dawley rat, liver | intravenous, 5 min | 6.08 ± 1.13 %ID/g |
| CCCC[C@H](NC(=O)CNC(=O)CNC(=O)CN1CCN(CC(=O)O)CCN(CC(=O)O)CCN(CC(=O)O)CC1)C(=O)N[C@H]1CC(=O)NCCCC[C@@H](C(N)=O)NC(=O)[C@H](Cc2c[nH]c3ccccc23)NC(=O)[C@H](CCCNC(=N)N)NC(=O)[C@@H](Cc2ccccc2)NC(=O)[C@H](Cc2c[nH]cn2)NC1=O [lead-203 labelled] |  | C57 mouse, brain | intravenous, 0.056 MBq, 24 h | 0.01 ± 0.02 %ID/g |
| O=C([O-])CN1CCN(CC(=O)[O-])CCN(CC(=O)NCCc2ccc3c(c2)C2C=CCC2C(c2cc4c(cc2Br)OCO4)N3)CCN(CC(=O)[O-])CC1.[111In+3] (stereo not shown) |  | mouse, Hec50 endometrial tumour, lungs | 2 h post injection | 0.8 ± 0.11 %ID/g |

A few entries again:
| SMILES | assay | system | conditions | tissue uptake |
| --- | --- | --- | --- | --- |
| NC12CNCCNCC(NCc3ccc(CNC(=O)CCCC(=O)NCc4ccc(-c5nncnn5)cc4)cc3)(CNCCNC1)CNCCNC2.[64Cu+2] |  | athymic nude mice SW1222 xenograft, bone | 4 h post injection, 24 h accumulation interval, added: huA33-TCO pretargeting | 0.34 ± 0.18 %ID/g |
| CC(C)[C@H](NC(=O)[C@@H]1CCCN1C(=O)[C@H](CCCNC(=N)N)NC(=O)[C@H](CS)NC(=O)[C@H](Cc1c[nH]c2ccccc12)NC(=O)[C@H](CCCNC(=N)N)NC(=O)[C@@H](Cc1ccccc1)NC(=O)[C@H](Cc1c[nH]cn1)NC(=O)[C@H](CCC(=O)O)NC(=O)[C@H](CS)NC(=O)[C@H](CS)NC(=O)CNC(=O)[C@@H]1CC(=O)N[C@@H](CCCNC(=N)N)C(=O)NCC(=O)N[C@@H](CC(=O)O)C(=O)N[C@H](Cc2ccc(O)cc2)C(=O)N1)C(N)=O [technetium-99m labelled] |  | C57 mouse, female, B16/F1 melanoma, lung | intravenous, 0.037 MBq, 0.5 h | 7.49 ± 2.03 %ID/g |
